Published values pooled from the literature.
Numbered parts are unrelated; each lists some results of a single study. Changes are numbered by the printed parent chain.

Series 1 — technique: RNA Bind-n-Seq; form: RNA; sample: in vitro; tested at: 365 nM; reference: no-protein control; reading: higher = stronger binding
Target: RNA binding protein fox-1 homolog 2, RRM domain, GST-SBP tag (RBFOX2, Homo sapiens, UniProt O43251-10, residues 100-194)
Notes: natural RNA segment, single round, ends assumed
Target sequence (chain): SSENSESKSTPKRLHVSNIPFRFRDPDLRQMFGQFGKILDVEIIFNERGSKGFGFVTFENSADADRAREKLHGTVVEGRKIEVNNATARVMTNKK
`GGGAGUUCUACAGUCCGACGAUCGAGGGGUACUUGUUUUCAUUGGAAAACUUUUAUGAUUAAGGGACUCUUUACAAACUGGCAUCUUAAGUUUUAGUGCCAUGUCGCUGUAGUCUGCUGCUUUCCUGGGUGGAUGGAAUUCUCGGGUGCCAA` — result for “RBNS enrichment (R)”: 0.505.
`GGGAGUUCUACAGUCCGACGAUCCAAAUGGAGUCAUUCUCCUUACUUCUGGCAGAAGGGUCAUAGCUCUCCCAGUAGUAGACCUGUGGUACCUAACGGCGUAUCAGGGCAUGCUGGUAUCACAAGACCCUGAUUGGAAUUCUCGGGUGCCAA`: “RBNS enrichment (R)” 0.27.
`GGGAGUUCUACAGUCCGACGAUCCCCAGGAUCUCCUGCCAGCCCAGCUGGCCUGGCCCCCAGCUUCACCUCUGGGACCCCAGCUGCUCUAAGCCCAGGAUCUCUUUCCCCAAGGACCCAGCCCUCGCCUCUGCUGGAAUUCUCGGGUGCCAA`: “RBNS enrichment (R)” 0.326.
Under “RBNS enrichment (R)”, `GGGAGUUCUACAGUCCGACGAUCGCCAGCCAGUGAUUUUCUUUUAAAUGAAAAUGAUGGGAUGAGAUGUAAUUUUAGAUCGGGAAGAGAGUGUGUGUCUAAUUCUUUUGAGUAUGCCUGUGCCAUCAGAGAAGUGGAAUUCUCGGGUGCCAA` is recorded as 1.53.
Under “RBNS enrichment (R)”, `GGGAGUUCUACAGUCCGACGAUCCAGCAAGAAAACAGACCUCAAGUUUCCACUCUGACCUGCCAGGUGGCCACUGGGUAAACAAGUCCUUUUGUCUAUGUAUGACAGCAAAGCAAGGACACCUGGGCAGUAACUGGAAUUCUCGGGUGCCAA` is recorded as 0.637.
`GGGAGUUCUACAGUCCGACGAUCUGGCAUGCCUGUGUAUGUGUGUAACAGGAUUCUGAAUGUUAGGUUGUAAUGCUAUUCCUGUAUGGGAGAAAAAAUAAUAUAAACAAAUAAAAAUCUAUUUAAAGCACAUUUGGAAUUCUCGGGUGCCAA`: “RBNS enrichment (R)” 32.8.
For `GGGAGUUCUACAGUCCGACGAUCAAGUCACUGAUGCCAUUUCAUACAGGUGCUAGCUGUCUUUCUGUGGUUUGAAGGAAAGUUAUUGUCACGUGGUUUGUUUUCCUCAAAAUGAAGGGAUAGGACAAAAGAGAUGGAAUUCUCGGGUGCCAA`, “RBNS enrichment (R)” read 0.404.
`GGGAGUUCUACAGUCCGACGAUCAUAUAGUUAAACUGAGAGUAAUUCAUCUGUGAAUCUGCUUUAAUUACCUGGUGAGUAACUUAGAAAAGUGGUGUAAACUUGUACAUGGAAUUUUUUGAAUAUGCCUUAAUUGGAAUUCUCGGGUGCCAA` — result for “RBNS enrichment (R)”: 1.1.
Under “RBNS enrichment (R)”, `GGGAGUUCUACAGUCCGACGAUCGGAUGUCCCUUGGGUCAGAGGUCAUCCUUUCCCUCUCUCCUGUUAUCAGAGGCAAAGGAAGGUCUACAGGCAUCAAUGAGGGCAAAGGAGGGGGUCUCCAGACUCCACUGUGGAAUUCUCGGGUGCCAA` is recorded as 0.318.
For `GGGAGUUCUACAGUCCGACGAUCUUCAUAAUUCAGGGGCUGUGGAUAGGAUUGUUCCUCUGUUUCCCUAAUCAUUCAUCUGUUCAUGUCUCCCUCUUGUGCCAGUCAGCCUAGGUUAUACAGAUGCCAUGCUCUGGAAUUCUCGGGUGCCAA`, “RBNS enrichment (R)” read 0.77.
`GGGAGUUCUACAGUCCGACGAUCCCCGAUAGCUGCCUGGUGCGGCAGCGGCGGCCAAAUCUUCCGUCCUCCCGUGGAUCUCCCGGGGUGGGGGCAGGGCGGGUCCCACGAUGGCCCCCAUUGCCCUCAUCACCUGGAAUUCUCGGGUGCCAA` — result for “RBNS enrichment (R)”: 0.242.

Series 2 — technique: RNA Bind-n-Seq; form: RNA; sample: in vitro; tested at: 200 nM; notes: whole 134-nt RNA, ends assumed; together with: 150 mM LiCl; reference: input library; reading: higher = stronger binding; each molecule: 7-deaza-guanosine replaces G
Target: Ras GTPase-activating protein-binding protein 1, full length (G3BP1, Homo sapiens, UniProt Q13283)
Sequence of UniProt Q13283 (whole entry, looked up): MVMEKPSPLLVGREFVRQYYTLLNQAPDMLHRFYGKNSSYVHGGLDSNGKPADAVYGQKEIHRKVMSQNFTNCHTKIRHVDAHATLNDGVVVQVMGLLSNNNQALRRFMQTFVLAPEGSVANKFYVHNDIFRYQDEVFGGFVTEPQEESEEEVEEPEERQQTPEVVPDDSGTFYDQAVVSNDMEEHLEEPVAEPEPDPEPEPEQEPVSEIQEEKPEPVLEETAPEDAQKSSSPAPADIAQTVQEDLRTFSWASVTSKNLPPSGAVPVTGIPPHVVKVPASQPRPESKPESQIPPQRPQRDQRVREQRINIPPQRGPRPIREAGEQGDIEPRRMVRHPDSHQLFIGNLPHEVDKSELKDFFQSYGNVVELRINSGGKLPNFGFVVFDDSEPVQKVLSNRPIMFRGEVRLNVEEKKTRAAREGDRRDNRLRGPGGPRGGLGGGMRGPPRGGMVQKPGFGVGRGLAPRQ
`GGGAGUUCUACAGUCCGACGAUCUGCUGGCAGCCAAGCAGCAGCAGGAGAUGCUGGCAGCCAAGCGGCAGCAGGAGCUGGAGCAGCAGCGGCAGCGGGAGCAGCAGCGGCAGGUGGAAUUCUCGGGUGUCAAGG` has a log2 enrichment of 0.113.
The log2 enrichment of `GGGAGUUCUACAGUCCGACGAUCGUCCUGUGCUACACAUCGUAUGUACCGAAUCGGGGAAAAAAAGGGGUUUGGGGAGGGGAAAGUAUUAUGUUACGCCGUUCGGAUCUGCACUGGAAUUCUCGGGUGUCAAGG` is reported as -1.23.
`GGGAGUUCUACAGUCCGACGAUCUCAAGUCCUGUGCUACACAUCGUAUGUACCGAAUCGGCCCGGGGCCCGGCCCGGGAAAGUAUUAUGUUACGCCGUUCGGAUCUGCACUUCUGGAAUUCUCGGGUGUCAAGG` has a log2 enrichment of -0.00591.
`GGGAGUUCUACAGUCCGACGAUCUCCUGUGCUACACAUCGUAUGUACCGAAUCGGGGUUUUUGGGGAGGGGUUUUUUUGGGGAAAGUAUUAUGUUACGCCGUUCGGAUCUGCAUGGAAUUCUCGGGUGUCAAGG` gave a log2 enrichment of 0.808.
The log2 enrichment of `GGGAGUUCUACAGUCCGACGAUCCAAGUCCUGUGCUACACAUCGUAUGUACCGAAUCGGGUGGGUUUUUGGGAAAGGGAAAGUAUUAUGUUACGCCGUUCGGAUCUGCACUUCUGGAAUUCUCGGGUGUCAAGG` is reported as -0.664.
For `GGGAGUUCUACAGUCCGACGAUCAGUCCUGUGCUACACAUCGUAUGUACCGAAUCGGUUUUUUUGGUUUUUUUGGUUUGGAAAGUAUUAUGUUACGCCGUUCGGAUCUGCACUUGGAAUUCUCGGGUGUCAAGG`, the log2 enrichment was -1.61.
`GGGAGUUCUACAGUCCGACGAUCUGUACUCGGAAGUUUCACUUACCAUCGACCACUCUCUGAUUCCGGAGGAGAGGCUCUCGCCCACCCCAUCCAUGCAGGAUGGGCUCGACCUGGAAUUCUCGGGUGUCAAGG` gave a log2 enrichment of 1.12.

Series 3 — target: CRIPT, C-terminal peptide; technique: DHFR complementation, deep sequencing; sample: yeast; reference: wild type; reading: higher = weaker binding
Notes: single substitutions, model-inferred values
Parent: ERBIN, PDZ domain 1 (human); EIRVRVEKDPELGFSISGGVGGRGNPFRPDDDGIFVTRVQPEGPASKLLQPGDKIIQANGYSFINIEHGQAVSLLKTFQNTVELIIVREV; partner TKNYKQTSV
Under “binding free energy change”, `F27Y` is recorded as 0.0405 kcal/mol.
Under “binding free energy change”, `I86V` is recorded as -0.0754 kcal/mol.
For `P44F`, “binding free energy change” read 1.29 kcal/mol.
`V90Y`: “binding free energy change” -0.0528 kcal/mol.
`R28A`: “binding free energy change” -0.0108 kcal/mol.
`V82Y`: “binding free energy change” 1.6 kcal/mol.

Further values, each from its own experiment
`PhoQ, residues 284 288 289 292 302 303 TSTLRA` has a fold induction of 2.12 (PhoP, residues 12 14 15 18 19 QYCSL (Escherichia coli, UniProt P23836); Sort-seq, measured: YFP reporter; E. coli; PhoQ-PhoP variant library, together with: 10 µM Mg2+; reference: high Mg2+ state, higher = stronger signaling).

For quick reference, copied from above (series 1):
Under “RBNS enrichment (R)”, `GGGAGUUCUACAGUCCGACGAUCCAGCAAGAAAACAGACCUCAAGUUUCCACUCUGACCUGCCAGGUGGCCACUGGGUAAACAAGUCCUUUUGUCUAUGUAUGACAGCAAAGCAAGGACACCUGGGCAGUAACUGGAAUUCUCGGGUGCCAA` is recorded as 0.637.
`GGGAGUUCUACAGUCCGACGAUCUGGCAUGCCUGUGUAUGUGUGUAACAGGAUUCUGAAUGUUAGGUUGUAAUGCUAUUCCUGUAUGGGAGAAAAAAUAAUAUAAACAAAUAAAAAUCUAUUUAAAGCACAUUUGGAAUUCUCGGGUGCCAA`: “RBNS enrichment (R)” 32.8.
